Assay results collected from several papers.
Each numbered part is a random draw from the data of one study; scales do not carry over between parts.
UniProt P51617, sequence (whole entry, looked up): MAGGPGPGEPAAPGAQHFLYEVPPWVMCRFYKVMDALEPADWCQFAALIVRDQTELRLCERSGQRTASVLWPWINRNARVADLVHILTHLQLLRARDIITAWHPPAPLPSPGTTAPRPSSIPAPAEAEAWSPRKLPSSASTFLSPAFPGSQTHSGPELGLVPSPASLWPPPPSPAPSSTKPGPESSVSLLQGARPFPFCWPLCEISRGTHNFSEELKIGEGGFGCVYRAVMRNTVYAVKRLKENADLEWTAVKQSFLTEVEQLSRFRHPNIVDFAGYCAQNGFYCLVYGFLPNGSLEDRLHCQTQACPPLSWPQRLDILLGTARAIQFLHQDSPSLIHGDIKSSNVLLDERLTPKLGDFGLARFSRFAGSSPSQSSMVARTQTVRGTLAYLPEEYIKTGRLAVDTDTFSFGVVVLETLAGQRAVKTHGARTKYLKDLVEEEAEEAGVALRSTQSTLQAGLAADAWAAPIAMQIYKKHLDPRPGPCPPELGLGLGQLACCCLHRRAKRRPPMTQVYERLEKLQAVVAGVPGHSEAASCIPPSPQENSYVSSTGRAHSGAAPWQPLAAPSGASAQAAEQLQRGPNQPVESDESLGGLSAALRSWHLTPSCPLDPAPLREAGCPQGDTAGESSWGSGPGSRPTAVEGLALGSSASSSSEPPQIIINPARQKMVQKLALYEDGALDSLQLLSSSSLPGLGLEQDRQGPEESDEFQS
UniProt Q15418, sequence (whole entry, looked up): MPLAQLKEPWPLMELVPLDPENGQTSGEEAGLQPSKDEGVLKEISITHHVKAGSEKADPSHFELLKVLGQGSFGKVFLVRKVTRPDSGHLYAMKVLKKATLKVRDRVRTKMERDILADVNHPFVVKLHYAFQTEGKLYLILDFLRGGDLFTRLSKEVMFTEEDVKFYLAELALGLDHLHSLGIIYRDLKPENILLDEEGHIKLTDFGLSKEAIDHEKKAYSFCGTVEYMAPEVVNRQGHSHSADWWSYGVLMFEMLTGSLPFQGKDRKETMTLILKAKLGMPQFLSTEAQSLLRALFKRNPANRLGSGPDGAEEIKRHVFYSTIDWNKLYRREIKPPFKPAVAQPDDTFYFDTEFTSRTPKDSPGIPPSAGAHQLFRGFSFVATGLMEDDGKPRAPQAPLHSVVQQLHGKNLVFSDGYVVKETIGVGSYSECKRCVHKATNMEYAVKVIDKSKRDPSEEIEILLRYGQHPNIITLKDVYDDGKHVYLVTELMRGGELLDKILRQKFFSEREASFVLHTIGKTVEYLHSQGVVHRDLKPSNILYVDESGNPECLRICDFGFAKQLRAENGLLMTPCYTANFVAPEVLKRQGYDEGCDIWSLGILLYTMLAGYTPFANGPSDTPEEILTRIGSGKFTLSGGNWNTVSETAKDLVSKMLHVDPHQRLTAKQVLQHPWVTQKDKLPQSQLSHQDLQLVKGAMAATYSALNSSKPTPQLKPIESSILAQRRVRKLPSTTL
UniProt O14936, sequence (whole entry, looked up): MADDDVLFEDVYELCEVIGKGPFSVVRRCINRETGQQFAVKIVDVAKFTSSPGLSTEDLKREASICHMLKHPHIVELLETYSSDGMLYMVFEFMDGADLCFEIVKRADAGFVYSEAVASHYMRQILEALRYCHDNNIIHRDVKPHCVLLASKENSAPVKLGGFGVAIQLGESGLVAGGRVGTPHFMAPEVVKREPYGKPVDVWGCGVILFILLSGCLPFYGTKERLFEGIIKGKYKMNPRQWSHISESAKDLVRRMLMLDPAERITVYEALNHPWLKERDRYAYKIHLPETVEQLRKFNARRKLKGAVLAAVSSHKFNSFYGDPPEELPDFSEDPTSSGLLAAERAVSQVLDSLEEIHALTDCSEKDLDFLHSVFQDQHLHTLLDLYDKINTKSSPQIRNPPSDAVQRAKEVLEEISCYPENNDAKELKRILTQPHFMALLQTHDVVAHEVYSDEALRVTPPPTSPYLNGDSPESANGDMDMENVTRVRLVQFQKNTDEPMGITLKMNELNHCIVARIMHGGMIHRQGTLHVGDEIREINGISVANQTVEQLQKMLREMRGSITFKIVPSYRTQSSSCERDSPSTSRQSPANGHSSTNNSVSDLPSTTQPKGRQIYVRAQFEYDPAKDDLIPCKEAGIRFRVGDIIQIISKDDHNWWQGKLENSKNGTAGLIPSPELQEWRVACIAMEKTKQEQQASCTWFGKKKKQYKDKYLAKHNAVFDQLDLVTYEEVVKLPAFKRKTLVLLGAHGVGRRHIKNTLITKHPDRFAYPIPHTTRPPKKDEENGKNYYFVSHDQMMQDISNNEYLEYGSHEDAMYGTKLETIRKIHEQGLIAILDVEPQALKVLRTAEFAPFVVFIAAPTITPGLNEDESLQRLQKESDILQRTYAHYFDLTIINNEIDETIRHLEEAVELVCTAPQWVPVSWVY
UniProt Q08881, sequence (whole entry, looked up): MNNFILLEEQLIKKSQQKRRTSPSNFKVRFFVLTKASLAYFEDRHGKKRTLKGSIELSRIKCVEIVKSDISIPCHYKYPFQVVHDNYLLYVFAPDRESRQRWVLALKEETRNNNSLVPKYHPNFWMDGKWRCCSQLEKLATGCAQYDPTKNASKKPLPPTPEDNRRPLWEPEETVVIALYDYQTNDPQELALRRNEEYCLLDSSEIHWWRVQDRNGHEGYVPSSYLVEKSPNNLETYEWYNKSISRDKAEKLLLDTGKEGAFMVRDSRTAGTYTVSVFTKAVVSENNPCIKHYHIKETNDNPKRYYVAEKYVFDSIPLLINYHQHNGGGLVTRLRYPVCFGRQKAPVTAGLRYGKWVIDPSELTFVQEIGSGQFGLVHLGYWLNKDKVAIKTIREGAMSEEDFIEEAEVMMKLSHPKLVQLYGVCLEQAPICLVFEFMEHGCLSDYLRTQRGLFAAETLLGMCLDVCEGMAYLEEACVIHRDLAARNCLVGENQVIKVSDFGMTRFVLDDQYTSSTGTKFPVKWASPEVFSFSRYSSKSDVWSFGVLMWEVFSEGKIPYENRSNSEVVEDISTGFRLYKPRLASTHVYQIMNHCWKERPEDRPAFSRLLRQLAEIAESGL
UniProt P29320, sequence (whole entry, looked up): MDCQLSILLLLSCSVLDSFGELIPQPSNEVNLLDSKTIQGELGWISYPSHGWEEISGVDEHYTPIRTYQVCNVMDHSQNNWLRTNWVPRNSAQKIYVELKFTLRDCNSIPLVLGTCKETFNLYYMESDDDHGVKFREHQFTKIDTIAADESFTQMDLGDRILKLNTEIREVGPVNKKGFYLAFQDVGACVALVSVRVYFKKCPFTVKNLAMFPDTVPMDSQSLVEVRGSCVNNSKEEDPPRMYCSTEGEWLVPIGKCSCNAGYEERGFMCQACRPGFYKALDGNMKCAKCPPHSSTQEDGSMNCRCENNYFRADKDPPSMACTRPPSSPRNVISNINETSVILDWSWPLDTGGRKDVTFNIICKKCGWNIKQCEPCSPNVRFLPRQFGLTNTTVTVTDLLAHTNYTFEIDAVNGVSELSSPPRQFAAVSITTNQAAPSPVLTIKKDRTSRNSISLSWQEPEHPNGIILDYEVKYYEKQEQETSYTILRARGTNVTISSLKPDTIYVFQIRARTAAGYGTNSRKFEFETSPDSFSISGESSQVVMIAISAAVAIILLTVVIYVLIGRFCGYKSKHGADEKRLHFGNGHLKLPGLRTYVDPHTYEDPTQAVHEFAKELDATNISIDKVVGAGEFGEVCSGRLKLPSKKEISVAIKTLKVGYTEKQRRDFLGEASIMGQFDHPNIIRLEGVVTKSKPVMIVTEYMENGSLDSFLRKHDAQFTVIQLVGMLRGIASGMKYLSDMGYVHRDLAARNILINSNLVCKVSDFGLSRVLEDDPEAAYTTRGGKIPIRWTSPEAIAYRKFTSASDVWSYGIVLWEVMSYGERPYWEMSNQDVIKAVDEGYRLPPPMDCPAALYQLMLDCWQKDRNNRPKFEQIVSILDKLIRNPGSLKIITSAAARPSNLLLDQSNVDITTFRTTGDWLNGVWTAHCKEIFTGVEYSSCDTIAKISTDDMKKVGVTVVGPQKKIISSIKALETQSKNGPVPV
UniProt Q04771, sequence (whole entry, looked up): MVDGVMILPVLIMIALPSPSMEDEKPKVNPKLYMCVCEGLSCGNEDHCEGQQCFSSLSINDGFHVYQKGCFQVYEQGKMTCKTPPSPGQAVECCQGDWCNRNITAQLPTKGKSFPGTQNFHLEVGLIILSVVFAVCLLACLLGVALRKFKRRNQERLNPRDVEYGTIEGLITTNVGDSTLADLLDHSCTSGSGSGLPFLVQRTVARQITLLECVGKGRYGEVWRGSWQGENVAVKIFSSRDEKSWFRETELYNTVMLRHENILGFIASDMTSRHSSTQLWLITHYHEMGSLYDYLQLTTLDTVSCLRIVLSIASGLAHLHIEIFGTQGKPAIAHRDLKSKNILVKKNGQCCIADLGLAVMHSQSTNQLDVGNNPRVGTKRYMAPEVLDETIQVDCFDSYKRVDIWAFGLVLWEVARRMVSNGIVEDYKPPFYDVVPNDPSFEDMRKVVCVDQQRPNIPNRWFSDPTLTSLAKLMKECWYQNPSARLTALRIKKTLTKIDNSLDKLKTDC

Series 1
Organism: Sarcocystis neurona
Read-out: parasite growth
Concentration: 10 µM
Time: 96 h
`C=C(CC)C(=O)c1ccc(OCC(=O)O)c(Cl)c1Cl` has an inhibition of -2.5%.
`O=C(C1CCCCC1)N1CC(=O)N2CCc3ccccc3C2C1` (stereo not shown) gave an inhibition of -0.565%.
`COc1ccccc1OCC(O)COC(N)=O` (stereo not shown) gave an inhibition of -13.3%.

Series 2
Compound: CS(=O)(=O)NCC[C@H](NC(=O)c1cncc2c1cnn2-c1ccc(F)cc1)c1ccnc(S(C)(=O)=O)c1
Read-out: cell-free assay
Method: competition with immobilised ligand
Concentration: 1 µM
It gave 100% for remaining binding (Tyrosine-protein kinase JAK2, JH1 (JAK2, Homo sapiens, UniProt O60674)).
IRAK1 (Homo sapiens, UniProt P51617) — remaining binding: 100%.
The remaining binding was 94% (PRKD2 (Homo sapiens, UniProt Q9BZL6)).
Ribosomal protein S6 kinase alpha-1, C-terminal kinase domain (RPS6KA1, Homo sapiens, UniProt Q15418) — remaining binding: 100%.
IRAK4 (Homo sapiens, UniProt Q9NWZ3) — remaining binding: 100%.
The remaining binding was 100% (MINK1 (Homo sapiens, UniProt Q8N4C8)).
TSSK1B (Homo sapiens, UniProt Q9BXA7) — remaining binding: 99%.
For PHKG2 (Homo sapiens, UniProt P15735): remaining binding read 100%.
For ITK (Homo sapiens, UniProt Q08881): remaining binding read 99%.
It gave 100% for remaining binding (MAPK15 (Homo sapiens, UniProt Q8TD08)).
PHKG1 (Homo sapiens, UniProt Q16816) — remaining binding: 75%.
It gave 100% for remaining binding (MAPK12 (Homo sapiens, UniProt P53778)).
ACVR1 (Homo sapiens, UniProt Q04771) — remaining binding: 100%.
For EPHA6 (Homo sapiens, UniProt Q9UF33): remaining binding read 100%.
It gave 98% for remaining binding (PIK3CA (Homo sapiens, UniProt P42336, C420R)).
For BTK (Homo sapiens, UniProt Q06187): remaining binding read 100%.
CASK (Homo sapiens, UniProt O14936) — remaining binding: 100%.
MAST1 (Homo sapiens, UniProt Q9Y2H9) — remaining binding: 100%.
The remaining binding was 100% (GRK4 (Homo sapiens, UniProt P32298)).
The remaining binding was 100% (TSSK3 (Homo sapiens, UniProt Q96PN8)).
MAP2K5 (Homo sapiens, UniProt Q13163) — remaining binding: 92%.
The remaining binding was 100% (HUNK (Homo sapiens, UniProt P57058)).
The remaining binding was 84% (EGFR (Homo sapiens, UniProt P00533)).
For EPHA3 (Homo sapiens, UniProt P29320): remaining binding read 87%.
MAP3K9 (Homo sapiens, UniProt P80192) — remaining binding: 97%.

Series 3
Target: POU, POU domain (Salpingoeca helianthica)
Method: Spec-seq
Molecule type: double-stranded DNA, one strand shown
Sample: in vitro
Concentration: not given
Notes: whole probe, mean of replicates
Baseline: not given
Direction: lower = stronger binding
Shared flanks, not repeated: GAGTCGTCTCGTCAGCAC … CCGTAGAGCACTCAGGTC
Residues (chain): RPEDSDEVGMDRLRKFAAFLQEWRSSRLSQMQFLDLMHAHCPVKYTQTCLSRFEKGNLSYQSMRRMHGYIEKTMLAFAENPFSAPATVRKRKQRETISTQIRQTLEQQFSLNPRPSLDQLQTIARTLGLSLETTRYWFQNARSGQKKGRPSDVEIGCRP
Under “relative binding energy”, `ATGCAATA` is recorded as 1.36 ln ratio.
`ATGTATAT`: “relative binding energy” 0.896 ln ratio.
For `ACAGTAAT`, “relative binding energy” read 0.592 ln ratio.
`ATCAGTAT` — result for “relative binding energy”: 1.02 ln ratio.
`GTGTTAAT`: “relative binding energy” -0.292 ln ratio.
For `ATCAATAT`, “relative binding energy” read 0.648 ln ratio.
`ATGCTCCC`: “relative binding energy” 1.62 ln ratio.
For `GATGTAAT`, “relative binding energy” read 0.483 ln ratio.

Series 4
Target: Centromere-binding protein 1, full length, His-tagged (CBF1, Saccharomyces cerevisiae, UniProt P17106, residues 1-351)
UniProt P17106, sequence (whole entry, looked up): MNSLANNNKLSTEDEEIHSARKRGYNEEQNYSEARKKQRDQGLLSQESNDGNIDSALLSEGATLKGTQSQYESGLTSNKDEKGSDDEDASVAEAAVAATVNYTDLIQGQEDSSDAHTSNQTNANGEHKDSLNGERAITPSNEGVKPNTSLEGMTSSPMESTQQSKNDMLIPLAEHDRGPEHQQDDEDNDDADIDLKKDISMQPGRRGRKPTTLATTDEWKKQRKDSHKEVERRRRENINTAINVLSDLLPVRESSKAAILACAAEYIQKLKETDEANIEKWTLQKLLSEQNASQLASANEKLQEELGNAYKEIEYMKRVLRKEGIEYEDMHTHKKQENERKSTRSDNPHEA
Method: competition protein-binding microarray
Molecule type: double-stranded DNA, one strand shown
Sample: in vitro
Concentration: 2 µM
Notes: whole 60-bp probe, lowest competitor level
Added: Pho4 competitor, 0.05 µM
Direction: higher = stronger binding
The fluorescence intensity of `ACATCTGGGCAAATCGTCGTGCGGAAAATGAATTTGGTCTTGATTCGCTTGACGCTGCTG` is reported as 68.5 a.u.
The fluorescence intensity of `AGACGCTAGACCTGCCATGTGGAGATCCGGGGCGGAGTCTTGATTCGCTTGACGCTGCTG` is reported as 69.2 a.u.
`TGCGCAACAACTTGCCTAGTGGGTGTATGTCTAGAAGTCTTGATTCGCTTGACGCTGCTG` has a fluorescence intensity of 65.3 a.u.
With `AAGAAGAGGCAGATTACCGTGATGGTATAGAGCCCAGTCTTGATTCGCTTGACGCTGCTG` the fluorescence intensity was 62.1 a.u.
`TTGAGCTTATAAAAGCACGTGACGGCAATTCACCCCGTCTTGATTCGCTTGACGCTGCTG` has a fluorescence intensity of 11800 a.u.
For `CTGTCATCATGTACTCATGTGCCCGCGCGCGCGCTTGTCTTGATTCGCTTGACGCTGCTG`, the fluorescence intensity was 107 a.u.
`CGGGGTTAAGTTTTTCACGTGCTCTGCTTGCAGCAGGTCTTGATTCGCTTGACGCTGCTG` gave a fluorescence intensity of 1130 a.u.
`AAAGCGGTAATTTGCAGCGTGGGTGCAGATATCTATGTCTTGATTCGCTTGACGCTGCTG` gave a fluorescence intensity of 63.8 a.u.

Series 5
Target: Myc proto-oncogene protein, bHLH-zipper, MAX partner unstated (MYC, Homo sapiens, UniProt P01106, residues 368-449)
UniProt P01106, sequence (368-449, looked up): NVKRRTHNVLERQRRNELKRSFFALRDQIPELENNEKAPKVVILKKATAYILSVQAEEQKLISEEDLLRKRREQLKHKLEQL
Method: protein-binding microarray
Molecule type: double-stranded DNA, one strand shown
Sample: in vitro
Concentration: not given
Notes: k-mer, scored over probes, only values ≥0.25
Direction: higher = stronger binding
For `ACACGCGG`, the E-score was 0.47.
`CATGTTTA` gave an E-score of 0.369.
`GCGCCACA` has an E-score of 0.274.
For `CGTGTCAC`, the E-score was 0.403.
For `GCACGAGC`, the E-score was 0.319.
For `CGTGTGTC`, the E-score was 0.327.
The E-score of `CCACATGG` is reported as 0.481.
`GACGTGGC` gave an E-score of 0.339.

Other studies, line by line
With `Cc1ccccc1S(=O)(=O)N(CCn1nnc(C(=O)O)c1C(=O)O)C1CCCCC1` the remaining compound was 93% (mouse, microsomes or S9; 2 µM, 0.5 h).
For `O=C(Nc1cnn(-c2csc(C(=O)NC3COC3)c2)c1)Nc1c(F)cccc1Cl`, the remaining activity was 93.6% (CAMKK1 (Homo sapiens, UniProt Q8N5S9); enzyme activity; 5 µM; baseline: untreated control).
The IC50 of `CN1CCN(CC(O)COc2ccc(CN3CC(c4ccccn4)C3)cc2)CC1` (stereo not shown) is reported as at least 100 µM (ADRB1 (Homo sapiens, UniProt P08588); antagonist).

For quick reference, copied from above (series 5):
For `ACACGCGG`, the E-score was 0.47.
`CATGTTTA` gave an E-score of 0.369.
`GCGCCACA` has an E-score of 0.274.
For `CGTGTCAC`, the E-score was 0.403.
For `GCACGAGC`, the E-score was 0.319.
For `CGTGTGTC`, the E-score was 0.327.
The E-score of `CCACATGG` is reported as 0.481.
`GACGTGGC` gave an E-score of 0.339.
